Published values from different studies.
Protocols differ between the studies behind these lines. Several values in a cell are separate wells, animals, samples, runs or records. ± marks the error that the study gave.

| SMILES | target or system | test | system | setting | scale | measurement | result |
| --- | --- | --- | --- | --- | --- | --- | --- |
| COc1cc(N2CCC(N3CCN(C)CC3)CC2)ccc1Nc1ncc(Cl)c(Nc2ccccc2P(C)(C)=O)n1 | Ba/F3 EML4-ALK variant 1 S1206F | cell viability | – | – | – | Emax | 100% |
| CCn1cc(-c2cc(Cn3ccnc3)cc3c2CCN([C@H](c2cc(OC)ccn2)C2CC2)C3=O)c(C(F)(F)F)n1 | CAKI-2 | cell growth, inhibitor | – | 120 h | – | EC50 | 19800 nM |
| CC(C)NCC(O)c1ccc(O)c(O)c1 (stereo not drawn) | mouse ventricular cardiomyocytes | – | – | dose not given, 0.195 s | – | sarcomere length | 1.71 µm |
| C#Cc1cccc(Nc2ncnc3cc(OCCOC)c(OCCOC)cc23)c1 | iCell Cardiomyocytes (hiPSC-derived) | CellTiter-Glo | – | concentration not given, 24 h | reference: control | ATP level | 93.1% |
| Cn1cc(-c2ccc(F)c(C(F)(F)F)c2)nc1C1CCN(c2ncnc3[nH]ncc23)CC1 | SK-OV-3 | ATP | – | 10 µM, 4 days, 3D U-bottom low-attachment | reference: untreated | relative cell number | 111% |
| COc1cc(/C=C/C(=O)N2CCC=CC2=O)cc(OC)c1OC | MDA-MB-468 | qRT-PCR, item: NDUFA6 | – | 30 µM, 6 h | reference: time zero | mRNA level | 107 ± 21.3% |
| O=C(/C=C/C=C/C=C/C1CCCCC1)NC1=C[C@@](O)(/C=C/C=C/C=C/C(=O)NC2=C(O)CCC2=O)[C@@H]2O[C@@H]2C1=O | LUDLU-1 | cell growth, CellTiter-Glo | – | 78 h | – | GI50 | > 30000 nM |
| COc1ccc(Cc2ccnc3cc(OC)c(OC)cc23)cc1OC | A549 | mitochondrial oxygen consumption, Seahorse XF96 | – | 10 µM | – | inhibition | 0% |
| CCOC(=O)Cc1sc(NCc2ncccn2)nc1-c1ccccn1 | THLE-2 | – | – | – | reference: CC50 THLE-2 over Huh-7 | selectivity ratio | < 2 |
| CC#CC(=O)N1CCC[C@H]1c1nc(-c2ccc(C(=O)Nc3ccccn3)cc2)c2c(N)nccn12 | Ramos | calcium flux, FLIPR | – | 2 h preincubation | – | maximum inhibition | 86.5% |
| COc1cc2c(cc1OC)[C@@H](Cc1ccc(O)c(Oc3cc4c(cc3OC)CCN(C)[C@@H]4Cc3ccc(O)cc3)c1)N(C)CC2 | 3T3-L1 | adipocyte lipid accumulation, Nile Red staining | – | 5 µM | – | inhibition | 18.7 ± 0.9% |
| Cc1nc(N(Cc2ccccc2)c2ccc3c(c2)/C(=C/c2ccccc2)C(=O)N3Cc2ccccc2)c2ccccc2n1 (mixture of isomers) | A549 | – | – | 1.0 µM, 24 h | – | wound healing rate | 10.6% |
| C=CC(=O)N1CCC([C@@H]2CCNc3c(C(N)=O)c(-c4ccc(Oc5ccccc5)cc4)nn32)CC1 | Ramos | calcium flux, FLIPR | – | 2 h preincubation | – | maximum inhibition | 89.7% |
| Cc1cc(Nc2ncc(Cl)c(Nc3ccccc3S(=O)(=O)C(C)C)n2)c(OC(C)C)cc1C1CCNCC1 | CLB-GE | phosphoproteomics LC-MS/MS, item: AKT1 phosphorylation | – | 200 nM, 60 min | reference: untreated | log2 fold change | -3.27 |
| COC(=O)c1cc(C(C)=NNc2nc(-c3ccc4c(c3)OCCCO4)cs2)ccc1O | T47D | flow cytometry | – | 20 µM, 72 h | – | cells in S phase | 58.2 ± 2.48% |
| CCCS(=O)(=O)Nc1ccc(F)c(C(=O)c2c[nH]c3ncc(Cl)cc23)c1F | iCell Cardiomyocytes (hiPSC-derived) | CellTiter-Glo | – | concentration not given, 24 h | reference: control | ATP level | 107% |
| CCCCCCNC(=O)n1cc(F)c(=O)[nH]c1=O | SW-403 | LC-MS, item: Cer(d18:1/14:0) | – | 0.3 µM | – | ceramide level | 4.08 ± 0.34 pmol/mg protein |
| CCn1cc(-c2cc(Cn3ccoc3=N)cc3c2CCN([C@@H](C)c2cc(OC)ccn2)C3=O)c(C(F)(F)F)n1 | DB | cell growth | – | 120 h | – | EC50 | 31.9 nM |
| Cc1cccc(-c2[nH]c(CNc3ccccc3F)nc2-c2ccc3ncnn3c2)n1 | bone marrow CD138+ myeloma cells | XTT | – | 2 µM, mean of three patients | – | viability | 7% |
| COc1cccc2c1C(=O)c1c(O)c3c(c(O)c1C2=O)C[C@@](O)(C(=O)CO)C[C@@H]3O[C@H]1C[C@H](N)[C@H](O)[C@H](C)O1 | A549 and Vero | MTT | – | – | reference: CC50 Vero over EC50 A549 | selectivity index | 1.1 |
| CSC(=O)c1cccc2nnsc12 | HepaRG | ROS-Glo | – | – | – | maximal ROS response | -87.4 ± 16.9% |
| CCCCc1nc(Cl)c(CO)n1Cc1ccc(-c2ccccc2-c2nn[nH]n2)cc1 | human PBMC | RNA-seq, item: C1QTNF1 mRNA | – | 10 µg/mL, 24 h | reference: untreated control | log2 fold change | 2.93 |
| Cn1c(Nc2nc3ccc(C(F)(F)F)cc3s2)nc2cc(C(=O)NCCOCCO)ccc21 | SH-SY5Y | RNA-seq, item: CREB5 mRNA | – | 5 µM, 5 h | reference: untreated cells | fold change | 1.84 |
| O=C(c1ccc(/C=C/c2n[nH]c3ccccc23)cc1)N1CCNCC1 | iCell Cardiomyocytes (hiPSC-derived) | CellTiter-Glo | – | concentration not given, 24 h | reference: control | ATP level | 96.7% |
| Cc1cnc2ccc3c(c2n1)N1CCC(O)N=C1N3C (stereo not drawn) | BALB/c 3T3 | – | – | 0.1 µM | reference: solvent control | relative colony forming efficiency | 110 ± 7% |
| CC(C)(C)c1cnc(CSc2cnc(NC(=O)C3CCN(C(=O)CCCCCCCN4Cc5cc6c(cc5C4)C(=O)N(C4CCC(=O)NC4=O)C6=O)CC3)s2)o1 (stereo not drawn) | TC-71 | RNA-seq | – | 10 nM, 8 h | – | number of downregulated genes | > 2600 genes |
| C[C@@H]1CN(C(=O)c2ccc(NC(=O)c3cc(O[C@H](C)c4c(Cl)ccc(F)c4Cl)c(N)nn3)cc2)C[C@H](C)N1 | KARPAS-299 (NPM1-ALK) | cell viability | – | – | – | Emax | 80% |

| SMILES | target or system | test | system | setting | scale | measurement | result |
| --- | --- | --- | --- | --- | --- | --- | --- |
| CCOc1cc2ncc(C#N)c(Nc3ccc(OCc4ccccn4)c(Cl)c3)c2cc1NC(=O)/C=C/CN(C)C | iCell Cardiomyocytes (hiPSC-derived) | cellular impedance | – | concentration not given, 24 h | reference: control | cell index | 98.5% |
| CCCN1CCN(c2ccc3[nH]c(-c4ccc5[nH]c(-c6ccc(OCC)c(OCC)c6)nc5c4)nc3c2)CC1 | NCI/ADR-RES | cell growth, NCI-60 SRB | – | 10 µM, 48 h | – | growth percent | 79.4% |
| Clc1ccc(C2(c3ccc(-c4cn[nH]c4)cc3)CCNCC2)cc1 | SK-OV-3 | ATP | 2D monolayer culture | 10 µM, 4 days | reference: untreated | relative cell number | 4.3% |
| Cn1cc(-c2ccc(-c3cncc(Cl)c3N3CCC4(CCNC4=O)CC3)cc2)cn1 | COLO 205 | gene expression, microarray, item: HIF1A mRNA | – | concentration not given, 6 h | reference: untreated cells | log2 fold change | -2.03 |
| OCc1nc2ccc(NCc3ccc(C(F)(F)F)cc3)cc2[nH]1 | sample A patient iPSC NPCs | cell protection, MTS | – | up to 100 µM, 24 h | – | Emax | 20% |
| O=c1[nH]nc(OCCCc2ccc(Cl)cc2)c(NCc2cccnc2)c1Br | HEK-293T | RNA-seq GSEA, item: HALLMARK_UV_RESPONSE_DN | – | concentration not given | direction not given | normalized enrichment score | 1.31 |
| COc1cc(N2CCC(N3CCN(C)CC3)CC2)ccc1Nc1ncc(Cl)c(Nc2ccccc2S(=O)(=O)C(C)C)n1 | iCell Cardiomyocytes (hiPSC-derived) | xCELLigence Cardio impedance | – | concentration not given, 2 h | reference: control | beat amplitude | 99.8% |
| COc1ccc(-n2nc(C(C)=O)s/c2=N\N=C(/C)c2ccc(NC(=O)c3ccc(C)cc3)cc2)cc1 | HepG2 | – | – | 10 µM | – | viability | 2.68% |
| COc1ccc(Cc2ncnc3cc(OC)c(OC)cc23)cc1OC | A549 | mitochondrial oxygen consumption, Seahorse XF96 | – | 10 µM | – | inhibition | 22% |
| CCn1c(-c2nonc2N)nc2cncc(CNC3CCNCC3)c21 | SK-OV-3 | ATP | – | 10 µM, 4 days, 3D U-bottom low-attachment | reference: untreated | relative cell number | 102% |
| CSc1cc(Oc2ccnc3[nH]c(=O)cnc23)ccc1NC(=O)Nc1cc(C(C)(C)C)nn1-c1ccccc1 | patient-derived cells | RPPA, item: p53 pSer15 | – | 1 µM, 4 h, mean of three patients | reference: DMSO | phospho/total ratio | 0.62 |
| C#C[C@@]1(O)[C@@H](CO)O[C@@H](n2cc(F)c3c(N)ncnc32)[C@@H]1O | NCI/ADR-RES | cell growth, SRB | – | – | – | TGI | 11300 nM |
| CCCCN1CCN(c2ccc3[nH]c(-c4ccc5[nH]c(-c6ccc(OCC)c(OCC)c6)nc5c4)nc3c2)CC1 | NCI/ADR-RES | cell growth, NCI-60 SRB | – | 10 µM, 48 h | – | growth percent | 73% |
| C=CC(=O)Nc1cccc(Oc2nc(Nc3ccc(N4CCN(C)CC4)cc3)nc3ccoc23)c1 | TMD8 RAC2 knockout | calcium flux, FLIPR | – | 4 h preincubation | – | IC50 | 33 nM |
| c1ccc2[nH]ccc2c1 | HCT-8 | RNA-seq, item: ABCG1 | – | concentration not given | – | mRNA level, LS mean | 3.31 counts per million |
| Cn1cc(Nc2nccc(-c3ccc4c(c3)CN(C3COC3)CC[C@H]4NC(=O)c3cn(C(C)(C)C)nn3)n2)cn1 | human B cells | – | – | 100 nM, 64 h, stimulation-downregulated genes, together with: anti-IgM | – | number of downregulated genes | 0 |
| OC1CCN(c2ccc(/C=N/NC(=S)NC3CCCCC3)cc2)CC1 | BEAS-2B and A549 | MTT | – | – | reference: IC50 BEAS-2B over IC50 A549 | selectivity ratio | 3.8 |
| COc1cnc2cccc(N3CCc4c(cc(Cn5ccnc5C)cc4-c4cn(C)nc4C(F)(F)F)C3=O)c2c1 | OVTOKO | cell growth, inhibitor | – | 120 h | – | EC50 | 876 nM |
| Cn1cc(-c2ccc3nnc(Sc4ccc5ncccc5c4)n3n2)cn1 | iCell Cardiomyocytes (hiPSC-derived) | xCELLigence Cardio impedance | – | concentration not given, 2 h | reference: control | beat rate | 105% |
| C[C@H](CCC(=O)O)[C@H]1CC[C@H]2[C@@H]3[C@H](O)C[C@@H]4C[C@H](O)CC[C@]4(C)[C@H]3C[C@H](O)[C@]12C | – | binding, equilibrium dialysis LC-MS | – | 5 µM, thermostabilized A2AR-BRIL construct | reference: no-protein control, direction not given | z-scored log2 fold change | 3.98 |
| C=CC(=O)N1C/C(=C\c2ccc([N+](=O)[O-])cc2)C(=O)/C(=C/c2ccc([N+](=O)[O-])cc2)C1 | ARPE-19 HiBiT fibulin-3 | HiBiT luminescence | – | 1.66 µM | – | fibulin-3 level | -38.4% |
| C[C@H]1Oc2cc(cnc2N)-c2c(nn(C)c2C#N)CN(C)C(=O)c2ccc(F)cc21 | Ba/F3 EML4-ALK variant 1 E1210K | cell viability | – | – | – | Emax | 100% |
| Cc1nn(-c2nc3c(F)cc(F)cc3s2)c(O)c1C(c1ccc(C(F)(F)F)cc1)c1c(C)nn(-c2nc3c(F)cc(F)cc3s2)c1O | THP1-Dual | western blot | – | 20 µM, separate blot, together with: HT-DNA | reference: DMSO | phospho-TBK1 to TBK1 ratio | 0.575 and 0.491 and 0.562 |
| Cc1ccc2nc(NCCN)c3ncc(C)n3c2c1 | iCell Cardiomyocytes (hiPSC-derived) | CellTiter-Glo | – | concentration not given, 24 h | reference: control | ATP level | 99.1% |
| C=CC(=O)N1CCC[C@@H](n2nc(-c3ccc(Oc4ccccc4)cc3)c3c(N)ncnc32)C1 | Ramos | calcium flux, FLIPR | – | 2 h preincubation | – | IC50 | 1.04 nM |
| CN1CC[C@H](c2c(O)cc(O)c3c(=O)cc(-c4ccccc4Cl)oc23)[C@H](O)C1 | iCell Cardiomyocytes (hiPSC-derived) | xCELLigence Cardio impedance | – | concentration not given, 2 h | reference: control | beat amplitude | 98.8% |
| CC(C)CC(=O)NCC(=O)O | – | binding, equilibrium dialysis LC-MS | – | 5 µM, thermostabilized A2AR-BRIL construct | reference: no-protein control, direction not given | z-scored log2 fold change | -1.03 |

A few entries again:
| SMILES | target or system | test | system | setting | scale | measurement | result |
| --- | --- | --- | --- | --- | --- | --- | --- |
| Cn1c(Nc2nc3ccc(C(F)(F)F)cc3s2)nc2cc(C(=O)NCCOCCO)ccc21 | SH-SY5Y | RNA-seq, item: CREB5 mRNA | – | 5 µM, 5 h | reference: untreated cells | fold change | 1.84 |
| Cc1nc(N(Cc2ccccc2)c2ccc3c(c2)/C(=C/c2ccccc2)C(=O)N3Cc2ccccc2)c2ccccc2n1 (mixture of isomers) | A549 | – | – | 1.0 µM, 24 h | – | wound healing rate | 10.6% |
| CC(C)CC(=O)NCC(=O)O | – | binding, equilibrium dialysis LC-MS | – | 5 µM, thermostabilized A2AR-BRIL construct | reference: no-protein control, direction not given | z-scored log2 fold change | -1.03 |
| COc1cc(/C=C/C(=O)N2CCC=CC2=O)cc(OC)c1OC | MDA-MB-468 | qRT-PCR, item: NDUFA6 | – | 30 µM, 6 h | reference: time zero | mRNA level | 107 ± 21.3% |
| COc1cc(N2CCC(N3CCN(C)CC3)CC2)ccc1Nc1ncc(Cl)c(Nc2ccccc2P(C)(C)=O)n1 | Ba/F3 EML4-ALK variant 1 S1206F | cell viability | – | – | – | Emax | 100% |
